Experimental data of several laboratories.
± marks the error that the study gave.
B1: enzyme A172S/A173G/C179K/M174T/Q178P (Streptomyces platensis, UniProt A0A0A0V031); chain MQHTTIGDVLREHRRSHPGRTALVDGPVRLTWPELDDRVNRLAGSLAASGIGRGDRIMWLGQNSFRVYELIAAAGKLGAMVCVGYWRWAPPEMEFALRDFDPHLVVWQHQEIHETVARTREALGSDDTARWLRHDSAPQDPDGYEAFLAAGGLADPDLDIDPDSPVLVLYTSGTSGRPKGSLLSHTNLIAMATAAAWLGDIDHTTAFLNSGPMFHIGNHQFWGMPTLLMAGKNVIVRRVVAEEVRDLLVAEECTHAFLMPPTVAEIVRLNRDTGHDLSRLRATVAPHLWEGMATTDTSRFTRSGAAAGRGYGQTELSGFAVTAAYGGPAAGNAGRPGPGLTVRVLDTAGRECAVGEAGEICARGTVVHRGYWNRDEVNAHRFRSGWWHTTDLGRREPDGSLTFLGTTTRMLKSAAENIFPAEVENCIEQHPAVREAAVIGVPNTRWAQDVKAVVVLEPDAGVSEQEIIDHCRPRIASYKKPKSVAFAAALPRTVSGARDYDALDKEYGGGGYPGAATLGPGR
B2: enzyme A497K (Streptomyces platensis, UniProt A0A0A0V031); chain MQHTTIGDVLREHRRSHPGRTALVDGPVRLTWPELDDRVNRLAGSLAASGIGRGDRIMWLGQNSFRVYELIAAAGKLGAMVCVGYWRWAPPEMEFALRDFDPHLVVWQHQEIHETVARTREALGSDDTARWLRHDSAPQDPDGYEAFLAAGGLADPDLDIDPDSPVLVLYTAAMSGRQCGSLLSHTNLIAMATAAAWLGDIDHTTAFLNSGPMFHIGNHQFWGMPTLLMAGKNVIVRRVVAEEVRDLLVAEECTHAFLMPPTVAEIVRLNRDTGHDLSRLRATVAPHLWEGMATTDTSRFTRSGAAAGRGYGQTELSGFAVTAAYGGPAAGNAGRPGPGLTVRVLDTAGRECAVGEAGEICARGTVVHRGYWNRDEVNAHRFRSGWWHTTDLGRREPDGSLTFLGTTTRMLKSAAENIFPAEVENCIEQHPAVREAAVIGVPNTRWAQDVKAVVVLEPDAGVSEQEIIDHCRPRIASYKKPKSVAFAAALPRTVSGKRDYDALDKEYGGGGYPGAATLGPGR
B3: PTPN2 (Homo sapiens, UniProt P17706); chain MPTTIEREFEELDTQRRWQPLYLEIRNESHDYPHRVAKFPENRNRNRYRDVSPYDHSRVKLQNAENDYINASLVDIEEAQRSYILTQGPLPNTCCHFWLMVWQQKTKAVVMLNRIVEKESVKCAQYWPTDDQEMLFKETGFSVKLLSEDVKSYYTVHLLQLENINSGETRTISHFHYTTWPDFGVPESPASFLNFLFKVRESGSLNPDHGPAVIHCSAGIGRSGTFSLVDTCLVLMEKGDDINIKQVLLNMRKYRMGLIQTPDQLRFSYMAIIEGAKCIKGDSSIQKRWKELSKEDLSPAFDHSPNKIMTEKYNGNRIGLEEEKLTGDRCTGLSSKMQDTM
Sequence of UniProt Q06520 (whole entry, looked up): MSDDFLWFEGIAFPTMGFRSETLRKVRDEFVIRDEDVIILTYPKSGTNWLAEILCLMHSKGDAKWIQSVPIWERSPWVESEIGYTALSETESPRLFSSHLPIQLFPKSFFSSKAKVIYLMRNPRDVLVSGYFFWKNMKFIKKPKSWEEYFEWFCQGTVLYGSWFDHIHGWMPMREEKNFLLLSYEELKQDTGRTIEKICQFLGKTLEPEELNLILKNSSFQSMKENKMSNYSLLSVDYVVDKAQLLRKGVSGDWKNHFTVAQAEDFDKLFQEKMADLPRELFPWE
Sequence of UniProt P05804 (whole entry, looked up): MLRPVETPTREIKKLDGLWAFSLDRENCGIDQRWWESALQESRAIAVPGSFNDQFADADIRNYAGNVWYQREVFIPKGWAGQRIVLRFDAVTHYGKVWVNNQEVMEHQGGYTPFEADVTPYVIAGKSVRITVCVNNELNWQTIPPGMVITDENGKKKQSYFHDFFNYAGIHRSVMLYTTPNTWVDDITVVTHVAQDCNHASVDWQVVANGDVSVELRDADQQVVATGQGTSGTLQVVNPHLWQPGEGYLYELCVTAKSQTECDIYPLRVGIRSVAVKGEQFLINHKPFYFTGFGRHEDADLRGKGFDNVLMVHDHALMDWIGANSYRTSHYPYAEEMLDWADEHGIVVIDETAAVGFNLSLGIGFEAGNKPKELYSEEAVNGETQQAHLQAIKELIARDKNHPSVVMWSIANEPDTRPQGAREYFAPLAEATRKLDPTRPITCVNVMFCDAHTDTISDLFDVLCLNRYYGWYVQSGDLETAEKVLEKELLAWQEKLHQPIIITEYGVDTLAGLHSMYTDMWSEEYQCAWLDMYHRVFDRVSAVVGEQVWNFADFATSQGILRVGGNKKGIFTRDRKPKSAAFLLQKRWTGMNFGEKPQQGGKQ
Sequence of UniProt P21729 (whole entry, looked up): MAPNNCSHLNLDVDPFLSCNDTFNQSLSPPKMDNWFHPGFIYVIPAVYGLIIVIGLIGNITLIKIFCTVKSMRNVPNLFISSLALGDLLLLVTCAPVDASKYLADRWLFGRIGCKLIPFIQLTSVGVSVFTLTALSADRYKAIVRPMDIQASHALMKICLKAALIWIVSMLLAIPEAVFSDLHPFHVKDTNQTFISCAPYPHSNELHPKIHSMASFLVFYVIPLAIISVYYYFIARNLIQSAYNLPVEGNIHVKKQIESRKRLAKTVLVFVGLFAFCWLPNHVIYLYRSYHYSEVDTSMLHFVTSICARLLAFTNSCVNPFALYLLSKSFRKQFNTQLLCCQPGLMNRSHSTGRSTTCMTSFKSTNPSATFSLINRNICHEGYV

CCCNC(=O)[C@H](CC(C)C)NC(=O)[C@H](Cc1c[nH]cn1)NC(=O)CNC(=O)[C@@H](NC(=O)[C@H](C)NC(=O)[C@H](Cc1c[nH]c2ccccc12)NC(=O)[C@H](CCC(N)=O)NC(=O)[C@@H](Cc1ccccc1)NC(=O)CCCCCNC(=O)CN1CCN(CC(=O)O)CCN(CC(=O)O)CCN(CC(=O)O)CC1)C(C)C [indium-111 labelled]  tissue uptake (Gastrin-releasing peptide receptor (Mus musculus, UniProt P21729); CF-1 mice, large intestine; intravenous, 0.185 MBq, 1 h): 0.44 ± 0.31 %ID/g
N=C(N)NCCC[C@@H]1NC(=O)[C@H](CCCCNC(=O)CCOCCOCCOCCOCCNC(=O)CC[C@H](NC(=O)CCOCCOCCOCCOCCNC(=O)CC[C@H](NC(=O)CN2CCN(CC(=O)O)CCN(CC(=O)O)CCN(CC(=O)O)CC2)C(=O)NCCOCCOCCOCCOCCC(=O)N[C@@H](CCC(=O)NCCOCCOCCOCCOCCC(=O)NCCCC[C@@H]2NC(=O)[C@@H](Cc3ccccc3)NC(=O)[C@H](CC(=O)O)NC(=O)CNC(=O)[C@H](CCCNC(=N)N)NC2=O)C(=O)NCCOCCOCCOCCOCCC(=O)NCCCC[C@@H]2NC(=O)[C@@H](Cc3ccccc3)NC(=O)[C@H](CC(=O)O)NC(=O)CNC(=O)[C@H](CCCNC(=N)N)NC2=O)C(=O)NCCOCCOCCOCCOCCC(=O)NCCCC[C@@H]2NC(=O)[C@@H](Cc3ccccc3)NC(=O)[C@H](CC(=O)O)NC(=O)CNC(=O)[C@H](CCCNC(=N)N)NC2=O)NC(=O)[C@@H](Cc2ccccc2)NC(=O)[C@H](CC(=O)O)NC(=O)CNC1=O [indium-111 labelled]  tissue uptake (female athymic nude mice, liver; intravenous, 3 µCi, 4 h, U-87 MG glioma xenograft): 2.82 ± 0.54 %ID/g
B1  Vmax (C[C@@]12CCC[C@@](C)(C(=O)OP(=O)(O)OC[C@H]3O[C@@H](n4cnc5c(N)ncnc54)[C@H](O)[C@@H]3O)[C@H]1C[C@@H](O)[C@]13C[C@H]4C[C@H](O[C@@]4(C)C1)[C@@H]23; steady-state kinetics; pH 7.8, 25 °C): 3.06 µmol/min
N=C(N)NCCC[C@@H]1NC(=O)[C@H](CCCCNC(=O)CNC(=O)CNC(=O)CNC(=O)CC[C@H](NC(=O)CCOCCOCCOCCOCCNC(=O)CC[C@H](NC(=O)CN2CCN(CC(=O)O)CCN(CC(=O)O)CCN(CC(=O)O)CC2)C(=O)NCCOCCOCCOCCOCCC(=O)N[C@@H](CCC(=O)NCC(=O)NCC(=O)NCC(=O)NCCCC[C@@H]2NC(=O)[C@@H](Cc3ccccc3)NC(=O)[C@H](CC(=O)O)NC(=O)CNC(=O)[C@H](CCCNC(=N)N)NC2=O)C(=O)NCC(=O)NCC(=O)NCC(=O)NCCCC[C@@H]2NC(=O)[C@@H](Cc3ccccc3)NC(=O)[C@H](CC(=O)O)NC(=O)CNC(=O)[C@H](CCCNC(=N)N)NC2=O)C(=O)NCC(=O)NCC(=O)NCC(=O)NCCCC[C@@H]2NC(=O)[C@@H](Cc3ccccc3)NC(=O)[C@H](CC(=O)O)NC(=O)CNC(=O)[C@H](CCCNC(=N)N)NC2=O)NC(=O)[C@@H](Cc2ccccc2)NC(=O)[C@H](CC(=O)O)NC(=O)CNC1=O [indium-111 labelled]  tissue uptake (female athymic nude mice, intestine; intravenous, 3 µCi, 1 h, U-87 MG glioma xenograft): 4.35 ± 1.13 %ID/g
SULT2A1 (Homo sapiens, UniProt Q06520)  Vmax (C[C@]12CC[C@H](O)CC1CCC1C2[C@H](O)C(=O)[C@]2(C)[C@@H](c3ccc(=O)oc3)CC[C@]12O; steady-state kinetics; pH 7.4, 37 °C, sulfation by SULT2A1, not purified): 0.003 µmol/min/mg
B2 (enzyme A497K)  Vmax (C[C@@]12CCC[C@@](C)(C(=O)OP(=O)(O)OC[C@H]3O[C@@H](n4cnc5c(N)ncnc54)[C@H](O)[C@@H]3O)[C@H]1C[C@@H](O)[C@]13C[C@H]4C[C@H](O[C@@]4(C)C1)[C@@H]23; steady-state kinetics; pH 7.8, 25 °C): 5.34 µmol/min
B3 (PTPN2)  Vmax (CCCC[C@H](NC(=O)[C@H](CC(=O)O)NC(=O)[C@H](CC(=O)O)NC(=O)[C@H](CCC(=O)O)NC(=O)[C@H](Cc1ccc(OP(=O)(O)O)cc1)NC(=O)[C@H](CC(=O)O)NC(=O)[C@H](CC(=O)O)NC(=O)[C@H](CCC(=O)O)NC(=O)[C@H](CC(C)C)NC(=O)[C@H](CCC(=O)O)NC(=O)[C@H](CCC(=O)O)NC(=O)c1ccc2c(c1)C1(OC2=O)c2ccc(O)cc2Oc2cc(O)ccc21)C(=O)N[C@@H](CCC(=O)O)C(=O)N[C@@H](CCC(=O)O)C(N)=O; steady-state kinetics; 21 °C): 186000 µM/min/mg
C=Cc1c(C)c2cc3nc(c4c5[nH]c(cc6nc(cc1[nH]2)C(C)=C6CC)c(C)c5C(=O)C4)[C@@H](CCC(=O)NCC(=O)N1CCC[C@H]1C(=O)N[C@@H](CC(C)C)C(=O)NCC(=O)N[C@@H](Cc1ccccc1)C(=O)N[C@@H](CCCNC(=N)N)C(=O)N[C@H](C(=O)NCC(=O)N[C@@H](CCCCN)C(N)=O)C(C)C)[C@@H]3C  mean fluorescence intensity (OA patient synovial fibroblasts; flow cytometry; 1 µM, 24 h; reference: untreated): 55 ± 6 times
COc1ccc(C[C@H]2NC(=O)/C=C/C[C@@H]([C@H](C)[C@@H](OC(=O)CNC(=O)OCc3ccc(O[C@@H]4O[C@H](C(=O)O)[C@@H](O)[C@H](O)[C@H]4O)c(NC(=O)CCCc4cn(CCC(=O)NCCCC[C@@H]5NC(=O)[C@@H](Cc6ccccc6)NC(=O)[C@H](CC(=O)O)NC(=O)CNC(=O)[C@H](CCCNC(=N)N)NC5=O)nn4)c3)[C@@H](Cl)c3ccccc3)OC(=O)[C@H](CC(C)C)OC(=O)C(C)(C)CNC2=O)cc1Cl  half-life (Beta-glucuronidase (uidA, Escherichia coli, UniProt P05804); substrate; pH 7.0, 37 °C, with: enzyme 200 U/mL): 15 min
COC(=O)[C@H](CSSC(C)(C)[C@H](NC(=O)[C@H](CCC(=O)NC[C@H](O)[C@@H](O)[C@H](O)[C@H](O)CO)NC(=O)[C@H](CCC(=O)O)NC(=O)[C@H](CCC(=O)NC[C@H](O)[C@@H](O)[C@H](O)[C@H](O)CO)NC(=O)[C@H](CCC(=O)O)NC(=O)[C@H](CCC(=O)NC[C@H](O)[C@@H](O)[C@H](O)[C@H](O)CO)NC(=O)CC[C@H](NC(=O)c1ccc(NCc2cnc3nc(N)[nH]c(=O)c3n2)cc1)C(=O)O)C(=O)O)NC(=O)CC[C@H](NC(=O)c1ccc(NCc2cnc3nc(N)[nH]c(=N)c3n2)cc1)C(=O)O  Cmax (Lewis rat, female, plasma; subcutaneous, 500 nmol/kg): 682 nM
